Measured values collected from several papers.
Protocols differ between the studies behind these lines. ± gives the spread as reported.
Cell line: Jurkat

Compound | test | conditions | how to read | endpoint | value
O=C(N=P12CN3CN(CN(C3)C1)C2)c1cccc[c]1[Pd][Br].c1cncc(P(c2cccnc2)c2cccnc2)c1 | cytotoxicity, MTT | 24 h, 1% DMSO |  | IC50 | 101 ± 20 µM
C1=CCCC=CCC1.C1=CCCC=CCC1.[Cl][Hg-]([Cl])[Cl].[Cl][Hg-]([Cl])[Cl].[Pt+][c]1ccccc1P(=Nc1ccccc1)(c1ccccc1)c1ccccc1.[Pt+][c]1ccccc1P(=Nc1ccccc1)(c1ccccc1)c1ccccc1 | cell viability, MTT | 24 h |  | IC50 | 0.43 ± 0.06 µM
CC=C(C)C(=O)OC1C(O)C2OC(COC(=O)CCCCCCCCCC(CCCCC)OC3OC(C)C(OC(C)=O)C(O)C3O2)C1OC(=O)C=Cc1ccccc1 (centres unmarked) |  |  | relative to: IC50 MCF-10A over IC50 Jurkat | selectivity index | 3.16
CCCCCCCCCCCCCC(=O)NCC(=O)N[C@@H](CCCNC(=N)N)C(=O)N[C@@H](Cc1c[nH]c2ccccc12)C(=O)N[C@@H](CCCCN)C(=O)N[C@H](C(=O)N[C@@H](Cc1ccccc1)C(=O)N[C@@H](CCCCN)C(=O)N[C@@H](CCCCN)C(=O)N[C@H](C(=O)N[C@@H](CCC(=O)O)C(=O)N[C@@H](CCCCN)C(=O)N[C@H](C(=O)NCC(=O)N[C@@H](CCC(N)=O)C(=O)N[C@@H](CC(N)=O)C(=O)N[C@H](C(=O)N[C@@H](CCCNC(=N)N)C(=O)N[C@@H](CC(=O)O)C(=O)NCC(=O)N[C@H](C(=O)N[C@H](C(=O)N[C@@H](CCCCN)C(=O)N[C@@H](C)C(=O)NCC(=O)N1CCC[C@H]1C(=O)N[C@@H](C)C(=O)N[C@H](C(=O)N[C@@H](C)C(=O)N[C@H](C(=O)N[C@H](C(=O)NCC(=O)N[C@@H](CCC(N)=O)C(=O)N[C@@H](C)C(=O)N[C@@H](C)C(=O)N[C@H](C(=O)N[C@H](C(N)=O)[C@@H](C)CC)[C@@H](C)O)C(C)C)C(C)C)C(C)C)C(C)C)[C@@H](C)CC)[C@@H](C)CC)C(C)C)[C@@H](C)CC)[C@@H](C)CC | western blot, item: caspase 3 | 3 or 6 µM, 16 h |  | cleaved over total caspase ratio | increased
CN(C)C1=[S+][Au-]2([S]1)[c]1ccccc1P(c1ccccc1)(c1ccccc1)=[N+]2c1ccccc1.F[P-](F)(F)(F)(F)F (centres unmarked) | annexin V flow cytometry | 0.5 µM, 24 h |  | cell death | ~100%
C1=CCCC=CCC1.C1=CCCC=CCC1.O=C(N=P12CN3CN(CN(C3)C1)C2)c1cccc[c]1[Pt+].O=C(N=P12CN3CN(CN(C3)C1)C2)c1cccc[c]1[Pt+].[Cl][Hg-]([Cl])[Cl].[Cl][Hg-]([Cl])[Cl].[Cl][Hg][Cl].[Cl][Hg][Cl] | annexin V flow cytometry | 10 µM, 24 h |  | dead cells | ~50%
NCCCC[C@H](NC(=O)[C@@H](N)CCCCN)C(=O)NCC(=O)NCC(=O)NCCCCCCCCNC(=O)c1ccc(-c2ccccn2)cc1 | cytotoxicity, MTT | 24 h, 37 °C, 10% FBS |  | EC50 | 2400 nM
CC(C)C[C@H](NC(=O)[C@H](CO)NC(=O)[C@H](Cc1c[nH]c2ccccc12)NC(=O)[C@H](Cc1ccccc1)NC(=O)[C@H](Cc1ccccc1)NC(=O)[C@H](CCC(N)=O)NC(=O)[C@@H]1CCCN1C(=O)[C@H](CCCNC(=N)N)NC(=O)[C@H](CCCNC(=N)N)NC(=O)[C@H](CCCNC(=N)N)NC(=O)[C@H](CCC(N)=O)NC(=O)[C@H](CCCNC(=N)N)NC(=O)[C@H](CCCNC(=N)N)NC(=O)[C@H](CCCCN)NC(=O)[C@H](CCCCN)NC(=O)[C@H](CCCNC(=N)N)NC(=O)CNC(=O)[C@@H](N)Cc1ccc(O)cc1)C(=O)N[C@@H](CS)C(=O)N[C@H](C(=O)N[C@@H](C)C(=O)O)[C@@H](C)O |  | 20 µM, 15 min |  | trypan blue-negative cells | 21.8%
